# Assay results pooled from the literature.
# Compare with care: the assays were run in different laboratories. Changes are numbered by the printed parent chain. ± gives the spread as reported.
# PRIMPOL: PRIMPOL 1-560 (Homo sapiens, UniProt Q96LW4)
# Sequence of UniProt Q96LW4 (whole entry, looked up): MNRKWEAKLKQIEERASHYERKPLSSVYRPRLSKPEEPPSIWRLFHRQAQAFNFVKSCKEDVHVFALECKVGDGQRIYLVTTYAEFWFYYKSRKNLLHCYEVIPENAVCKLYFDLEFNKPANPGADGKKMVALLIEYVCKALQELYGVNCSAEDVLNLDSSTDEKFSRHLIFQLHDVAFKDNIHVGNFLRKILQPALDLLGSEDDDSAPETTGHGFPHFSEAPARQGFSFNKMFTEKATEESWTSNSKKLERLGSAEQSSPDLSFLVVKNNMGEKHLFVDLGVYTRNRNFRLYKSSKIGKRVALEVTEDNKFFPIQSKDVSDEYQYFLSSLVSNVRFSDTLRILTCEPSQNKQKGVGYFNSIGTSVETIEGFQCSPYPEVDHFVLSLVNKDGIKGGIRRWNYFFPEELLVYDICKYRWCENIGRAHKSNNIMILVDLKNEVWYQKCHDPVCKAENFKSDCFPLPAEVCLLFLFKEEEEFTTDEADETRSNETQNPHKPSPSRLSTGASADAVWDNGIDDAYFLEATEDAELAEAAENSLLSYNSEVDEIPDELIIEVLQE
# TFRC: TFRC fragment (Homo sapiens)
# GZF1: GZF1 250-711 (Homo sapiens, UniProt Q9H116)
# Sequence of UniProt Q9H116 (whole entry, unmodified, looked up): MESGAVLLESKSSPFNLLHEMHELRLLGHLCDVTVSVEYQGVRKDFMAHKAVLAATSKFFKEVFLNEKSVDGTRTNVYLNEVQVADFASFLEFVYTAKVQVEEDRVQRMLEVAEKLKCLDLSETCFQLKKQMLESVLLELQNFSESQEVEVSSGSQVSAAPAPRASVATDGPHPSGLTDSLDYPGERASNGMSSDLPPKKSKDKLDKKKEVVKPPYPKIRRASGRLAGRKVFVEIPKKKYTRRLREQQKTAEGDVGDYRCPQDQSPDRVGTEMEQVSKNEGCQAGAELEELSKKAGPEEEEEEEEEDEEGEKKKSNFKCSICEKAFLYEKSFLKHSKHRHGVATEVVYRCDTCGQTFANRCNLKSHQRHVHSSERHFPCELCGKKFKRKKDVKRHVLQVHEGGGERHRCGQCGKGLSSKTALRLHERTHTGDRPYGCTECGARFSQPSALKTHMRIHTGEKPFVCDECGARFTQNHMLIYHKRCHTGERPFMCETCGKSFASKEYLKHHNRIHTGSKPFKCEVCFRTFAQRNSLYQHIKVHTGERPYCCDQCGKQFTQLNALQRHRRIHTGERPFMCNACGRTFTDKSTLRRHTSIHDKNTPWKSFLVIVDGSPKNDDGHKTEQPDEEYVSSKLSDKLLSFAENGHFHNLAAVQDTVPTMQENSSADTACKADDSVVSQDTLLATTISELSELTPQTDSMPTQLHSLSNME
# P1: Fgfr1 (Mus musculus); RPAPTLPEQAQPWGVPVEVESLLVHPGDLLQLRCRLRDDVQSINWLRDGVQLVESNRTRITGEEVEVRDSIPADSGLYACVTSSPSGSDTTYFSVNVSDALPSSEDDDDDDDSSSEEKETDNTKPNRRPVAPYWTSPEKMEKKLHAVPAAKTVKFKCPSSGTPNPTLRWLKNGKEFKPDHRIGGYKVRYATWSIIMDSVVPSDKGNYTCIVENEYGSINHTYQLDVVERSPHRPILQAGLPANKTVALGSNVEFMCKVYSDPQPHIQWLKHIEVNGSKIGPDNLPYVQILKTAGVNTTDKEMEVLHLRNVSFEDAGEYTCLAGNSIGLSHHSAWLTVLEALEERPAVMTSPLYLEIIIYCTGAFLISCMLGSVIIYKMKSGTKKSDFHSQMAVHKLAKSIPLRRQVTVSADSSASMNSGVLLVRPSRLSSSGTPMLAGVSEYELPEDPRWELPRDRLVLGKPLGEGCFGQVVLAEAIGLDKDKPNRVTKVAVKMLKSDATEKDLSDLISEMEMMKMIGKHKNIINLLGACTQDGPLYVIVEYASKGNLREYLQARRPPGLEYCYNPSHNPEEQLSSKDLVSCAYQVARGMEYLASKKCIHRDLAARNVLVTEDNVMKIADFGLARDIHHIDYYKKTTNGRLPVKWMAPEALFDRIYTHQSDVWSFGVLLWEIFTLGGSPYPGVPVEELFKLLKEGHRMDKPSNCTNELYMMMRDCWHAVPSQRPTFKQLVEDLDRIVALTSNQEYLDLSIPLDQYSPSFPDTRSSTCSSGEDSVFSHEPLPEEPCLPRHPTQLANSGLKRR
# Sequence of UniProt P14866 (whole entry, looked up): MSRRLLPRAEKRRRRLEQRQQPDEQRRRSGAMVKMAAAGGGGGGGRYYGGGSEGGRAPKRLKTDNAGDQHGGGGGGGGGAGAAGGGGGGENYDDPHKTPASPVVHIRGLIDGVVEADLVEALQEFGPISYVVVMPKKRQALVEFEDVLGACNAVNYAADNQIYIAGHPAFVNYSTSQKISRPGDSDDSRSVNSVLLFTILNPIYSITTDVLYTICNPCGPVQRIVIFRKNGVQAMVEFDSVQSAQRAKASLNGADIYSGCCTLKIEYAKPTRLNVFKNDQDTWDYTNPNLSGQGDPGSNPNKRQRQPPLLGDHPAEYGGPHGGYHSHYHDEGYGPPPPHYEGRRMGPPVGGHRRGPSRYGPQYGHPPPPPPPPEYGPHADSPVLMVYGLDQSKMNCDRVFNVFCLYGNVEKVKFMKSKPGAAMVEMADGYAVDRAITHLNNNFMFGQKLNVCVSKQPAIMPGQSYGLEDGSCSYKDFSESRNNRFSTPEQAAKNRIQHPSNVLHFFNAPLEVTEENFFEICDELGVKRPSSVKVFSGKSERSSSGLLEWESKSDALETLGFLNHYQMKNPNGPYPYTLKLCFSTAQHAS
# Sequence of UniProt P49116 (whole entry, looked up): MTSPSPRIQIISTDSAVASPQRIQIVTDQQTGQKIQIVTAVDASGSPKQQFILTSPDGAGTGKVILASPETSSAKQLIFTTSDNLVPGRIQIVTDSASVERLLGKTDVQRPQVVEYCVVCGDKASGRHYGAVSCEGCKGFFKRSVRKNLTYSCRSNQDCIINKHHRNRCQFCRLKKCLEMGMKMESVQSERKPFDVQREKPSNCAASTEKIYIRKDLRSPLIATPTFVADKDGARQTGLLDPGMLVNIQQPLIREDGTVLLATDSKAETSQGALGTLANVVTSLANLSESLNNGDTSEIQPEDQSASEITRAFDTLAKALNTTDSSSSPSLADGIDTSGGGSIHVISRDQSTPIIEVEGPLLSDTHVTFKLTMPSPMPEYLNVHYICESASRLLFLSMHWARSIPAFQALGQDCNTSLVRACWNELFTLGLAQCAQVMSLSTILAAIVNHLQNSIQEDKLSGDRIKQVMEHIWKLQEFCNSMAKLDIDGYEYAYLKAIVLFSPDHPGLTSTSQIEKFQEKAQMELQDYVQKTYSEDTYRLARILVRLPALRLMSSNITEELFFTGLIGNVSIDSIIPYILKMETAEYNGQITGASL
Molecule,target or system,assay,test system,conditions,scale,measurement,value
"ATCAGGCTGGATGGTAGCTCGGTCGGGGTGGGTGGGTTGGCAAGTCTGAT (DNA stem-loop; 8 bp stem, G:T mismatch, G-rich loop)","MET full-length, on A549 cells (Homo sapiens, UniProt P08581)",flow cytometry,A549,"in cells, not purified",,Kd,41.2 nM
"DNA 1 TTTGGGGGAAGGATTC / DNA 2 TCGCATCACGTCACGGAATCCTTCCCCC (dsDNA; primer-template, 13 bp, 15 nt overhang)",PRIMPOL,fluorescence polarization,double-stranded DNA,together with: Mg2+ 5 mM,,Kd,240 nM
UUUAUUCACAUUUUUGAAUUGA (structured RNA; 2'-F pyrimidines),TFRC,SPR,folded RNA,,,Kd,0.022 nM
TATTTGGAATGCGCCGCCGTAAACCCGGCT (dsDNA),GZF1,competition,"double-stranded DNA, one strand shown",,,binding,no binding
GGCAGAGGTCAAAAAAAGGTCAAACGT (dsDNA),"NR2C2 113-200 (Homo sapiens, UniProt P49116)",MST,"double-stranded DNA, one strand shown",,,Kd,200 nM
GGGGCUCAAUGCGUUCACGUUUAUUCACAUUUUGAAUUGAGCAUG (structured RNA; 2'-F pyrimidines),TFRC,SPR,folded RNA,,,Kd,1.46 nM
AACGUACUUUAAGGCCUAUUGAGGAAACUC (ssDNA; all dC Pp-dC; all dU Nap-dU),PCSK9 fragment (Homo sapiens),filter binding,,,,Kd,0.0147 nM
P1 L402A V408A Y442F Y745F Y755F,PIK3R2 (Mus musculus),proximity ligation assay,embryo sections,read off a plot,higher = more proximity,signal,60 puncta
CACGCUCAUGCACACACCCACA (ssRNA),"HNRNPL full length assumed (Homo sapiens, UniProt P14866)",SPR,RNA,,,Kd,11.7 ± 3.6 nM
"DNA 1 TTTGGGGGAAGGATTC / DNA 2 TCACGGAATCCTTCCCCC (dsDNA; primer-template, 13 bp, 5 nt overhang)",PRIMPOL,fluorescence polarization,double-stranded DNA,together with: Mg2+ 5 mM,,Kd,910 ± 550 nM
GATCTCTGCGCACGCGTCTATAGCCTACTG (dsDNA),GZF1,competition,"double-stranded DNA, one strand shown",,,binding,no binding
"DNA 1 TTTGCCTCGAGCCAGCCGCAGACGCAC / DNA 2 TCGTCGGCGTCCTAGGTGCGTCTGCGGCTGGCTCGAGGC (dsDNA; primer-template, 24 bp, 15 nt overhang)",PRIMPOL,fluorescence polarization,double-stranded DNA,together with: Mg2+ 5 mM,,Kd,350 ± 160 nM
GATCTCTGCGTGCGCCTCTATAGCCTACTG (dsDNA),GZF1,competition,"double-stranded DNA, one strand shown",,,binding,binds

# Some of these lines once more:
Molecule,target or system,assay,test system,conditions,scale,measurement,value
GGGGCUCAAUGCGUUCACGUUUAUUCACAUUUUGAAUUGAGCAUG (structured RNA; 2'-F pyrimidines),TFRC,SPR,folded RNA,,,Kd,1.46 nM
